Measurements of several laboratories.
Lines come from different studies, so protocols differ. ± gives the spread as reported.
SCTR: Secretin receptor (SCTR, Homo sapiens, UniProt P47872)
Sequence of UniProt P47872 (whole entry, looked up): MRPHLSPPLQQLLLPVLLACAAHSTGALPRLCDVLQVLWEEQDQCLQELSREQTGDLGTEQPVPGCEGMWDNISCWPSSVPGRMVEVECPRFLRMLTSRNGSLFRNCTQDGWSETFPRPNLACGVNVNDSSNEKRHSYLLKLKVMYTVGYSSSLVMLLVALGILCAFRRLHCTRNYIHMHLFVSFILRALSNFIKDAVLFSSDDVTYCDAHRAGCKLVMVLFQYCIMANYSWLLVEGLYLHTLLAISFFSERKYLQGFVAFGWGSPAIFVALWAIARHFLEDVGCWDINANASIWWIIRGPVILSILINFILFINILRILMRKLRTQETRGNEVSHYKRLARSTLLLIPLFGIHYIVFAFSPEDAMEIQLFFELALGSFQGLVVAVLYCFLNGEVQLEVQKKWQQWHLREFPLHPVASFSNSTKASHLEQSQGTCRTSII
MET: Hepatocyte growth factor receptor (MET, Homo sapiens, UniProt P08581)
Sequence of UniProt P08581 (whole entry, looked up): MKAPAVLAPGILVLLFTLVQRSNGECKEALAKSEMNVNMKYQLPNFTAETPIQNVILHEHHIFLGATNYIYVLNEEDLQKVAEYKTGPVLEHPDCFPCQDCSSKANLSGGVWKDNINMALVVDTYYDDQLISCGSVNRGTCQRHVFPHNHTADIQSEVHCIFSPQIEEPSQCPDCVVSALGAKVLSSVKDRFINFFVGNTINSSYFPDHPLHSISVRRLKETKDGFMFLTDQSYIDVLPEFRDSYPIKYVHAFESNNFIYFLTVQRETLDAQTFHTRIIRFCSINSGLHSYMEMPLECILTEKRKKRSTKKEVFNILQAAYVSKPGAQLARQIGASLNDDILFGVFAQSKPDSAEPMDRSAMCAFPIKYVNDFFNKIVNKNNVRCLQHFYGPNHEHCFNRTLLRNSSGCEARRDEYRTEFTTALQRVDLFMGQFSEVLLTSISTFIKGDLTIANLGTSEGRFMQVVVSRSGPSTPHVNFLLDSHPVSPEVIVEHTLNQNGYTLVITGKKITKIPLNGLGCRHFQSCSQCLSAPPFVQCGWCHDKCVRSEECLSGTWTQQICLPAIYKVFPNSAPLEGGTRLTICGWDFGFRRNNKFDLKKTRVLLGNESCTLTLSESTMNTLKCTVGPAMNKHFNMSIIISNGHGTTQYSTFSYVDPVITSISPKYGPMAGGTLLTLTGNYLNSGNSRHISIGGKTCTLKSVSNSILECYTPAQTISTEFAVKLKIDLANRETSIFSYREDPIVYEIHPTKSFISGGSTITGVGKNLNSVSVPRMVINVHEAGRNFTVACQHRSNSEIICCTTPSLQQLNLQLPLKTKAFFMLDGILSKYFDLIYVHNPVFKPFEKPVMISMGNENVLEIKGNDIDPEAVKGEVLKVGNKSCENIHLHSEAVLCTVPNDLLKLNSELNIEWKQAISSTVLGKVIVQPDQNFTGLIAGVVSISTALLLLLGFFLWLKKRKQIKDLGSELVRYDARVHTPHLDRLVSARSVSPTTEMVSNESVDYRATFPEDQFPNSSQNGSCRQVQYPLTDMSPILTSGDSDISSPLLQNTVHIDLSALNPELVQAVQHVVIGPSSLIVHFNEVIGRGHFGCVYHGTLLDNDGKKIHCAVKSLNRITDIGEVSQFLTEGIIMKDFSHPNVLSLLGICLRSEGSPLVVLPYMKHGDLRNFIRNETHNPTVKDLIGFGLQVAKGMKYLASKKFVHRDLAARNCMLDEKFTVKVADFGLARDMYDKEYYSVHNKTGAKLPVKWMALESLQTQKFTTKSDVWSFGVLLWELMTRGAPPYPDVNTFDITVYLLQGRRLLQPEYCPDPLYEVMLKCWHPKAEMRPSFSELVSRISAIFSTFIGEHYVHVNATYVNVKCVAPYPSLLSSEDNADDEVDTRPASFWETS
Sequence of UniProt P50052 (whole entry, unmodified, looked up): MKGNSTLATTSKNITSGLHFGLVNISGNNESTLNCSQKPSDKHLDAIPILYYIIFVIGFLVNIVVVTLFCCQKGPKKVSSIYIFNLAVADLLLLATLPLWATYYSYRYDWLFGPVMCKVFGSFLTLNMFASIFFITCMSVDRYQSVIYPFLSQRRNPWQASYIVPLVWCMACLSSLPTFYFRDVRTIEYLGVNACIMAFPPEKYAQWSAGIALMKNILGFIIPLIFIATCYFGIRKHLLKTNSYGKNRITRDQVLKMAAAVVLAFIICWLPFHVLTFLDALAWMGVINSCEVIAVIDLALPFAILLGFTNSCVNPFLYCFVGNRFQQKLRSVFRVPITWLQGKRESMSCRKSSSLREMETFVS
Sequence of UniProt Q9HBW0 (whole entry, looked up): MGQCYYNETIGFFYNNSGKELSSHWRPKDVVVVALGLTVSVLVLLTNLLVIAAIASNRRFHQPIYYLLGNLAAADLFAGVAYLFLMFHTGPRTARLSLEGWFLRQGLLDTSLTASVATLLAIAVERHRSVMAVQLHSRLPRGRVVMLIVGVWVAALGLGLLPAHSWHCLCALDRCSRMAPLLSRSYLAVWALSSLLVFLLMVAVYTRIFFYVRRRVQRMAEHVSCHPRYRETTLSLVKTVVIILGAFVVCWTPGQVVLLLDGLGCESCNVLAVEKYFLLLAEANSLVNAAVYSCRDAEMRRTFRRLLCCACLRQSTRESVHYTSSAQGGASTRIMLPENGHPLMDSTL

With `CCc1nc2ccc(N(Cc3ccccc3)C(=O)c3cccs3)cc2c(=O)n1Cc1ccc(-c2ccccc2-c2nn[nH]n2)cc1` the Ki was 25.1 nM (Type-2 angiotensin II receptor (AGTR2, Homo sapiens, UniProt P50052, M128A); ligand displacement, radioligand; cell membranes).
With `COc1cc(Cl)ccc1NC(=O)CCCS(=O)(=O)c1nc(-c2ccc(OC)c(OC)c2)cc(C(F)(F)F)n1` the EC50 was 3200 ± 2200 nM (SCTR; increase of tracer binding, TR-FRET; HEK293 membranes; added: Fluo-Sec 6 nM).
With `N#Cc1cccc(-c2ccc(=O)n(Cc3cccc(-c4ncc(OCC5CCN(CC(=O)N6CCN(c7ccc8c(c7)C(=O)N(C7CCC(=O)NC7=O)C8=O)CC6)CC5)cn4)c3)n2)c1` (stereo not drawn) the DC50 was 0.44 ± 0.11 nM (MET; degrader).
`COc1ccc(-c2cc(C(F)(F)F)nc(NCc3ccc(F)cc3)n2)cc1OC` gave an EC50 of 3700 ± 1000 nM (SCTR; increase of tracer binding, TR-FRET; HEK293 membranes; added: Fluo-Sec 6 nM).
For `N#Cc1cccc(-c2ccc(=O)n(Cc3cccc(-c4ncc(OCC5CCN(CC(=O)NCCOCCNc6ccc7c(c6)C(=O)N(C6CCC(=O)NC6=O)C7=O)CC5)cn4)c3)n2)c1` (stereo not drawn), the DC50 was 0.69 ± 0.21 nM (MET; degrader).
For `CCCc1nc2ccc(N(Cc3ccco3)C(=O)c3ccccc3)cc2c(=O)n1Cc1ccc(-c2ccccc2-c2nnn[nH]2)cc1`, the Ki was 7.59 nM (Type-2 angiotensin II receptor (AGTR2, Homo sapiens, UniProt P50052, I211A); ligand displacement, radioligand; cell membranes).
With `CCCCCCCC/C=C\CCCCCCCC(=O)O[C@@H]1C=CCO[C@H]1COP(=O)(O)S` (stereo partly drawn) the EC50 was 1300 nM (Lysophosphatidic acid receptor 2 (LPAR2, Homo sapiens, UniProt Q9HBW0); G protein activation, agonist).
For `N#Cc1cccc(-c2ccc(=O)n(Cc3cccc(-c4ncc(OCC5CCN(CC(=O)NCCOCCOCCOCCNc6ccc7c(c6)C(=O)N(C6CCC(=O)NC6=O)C7=O)CC5)cn4)c3)n2)c1` (stereo not drawn), the DC50 was 1.7 ± 0.4 nM (MET; degrader).
The EC50 of `COc1ccc(-c2cc(C(F)(F)F)nc(NCc3ccccc3)n2)cc1` is reported as 39000 nM (SCTR; cAMP, agonist).

A few entries again:
`COc1ccc(-c2cc(C(F)(F)F)nc(NCc3ccc(F)cc3)n2)cc1OC` gave an EC50 of 3700 ± 1000 nM (SCTR; increase of tracer binding, TR-FRET; HEK293 membranes; added: Fluo-Sec 6 nM).
